Published values gathered from unrelated publications.
Numbered parts are unrelated; each lists some results of a single study. Values joined by “and” are separate records of one study, mostly repeats; a detail may differ.
Chain of UniProt P43403 (whole entry, looked up): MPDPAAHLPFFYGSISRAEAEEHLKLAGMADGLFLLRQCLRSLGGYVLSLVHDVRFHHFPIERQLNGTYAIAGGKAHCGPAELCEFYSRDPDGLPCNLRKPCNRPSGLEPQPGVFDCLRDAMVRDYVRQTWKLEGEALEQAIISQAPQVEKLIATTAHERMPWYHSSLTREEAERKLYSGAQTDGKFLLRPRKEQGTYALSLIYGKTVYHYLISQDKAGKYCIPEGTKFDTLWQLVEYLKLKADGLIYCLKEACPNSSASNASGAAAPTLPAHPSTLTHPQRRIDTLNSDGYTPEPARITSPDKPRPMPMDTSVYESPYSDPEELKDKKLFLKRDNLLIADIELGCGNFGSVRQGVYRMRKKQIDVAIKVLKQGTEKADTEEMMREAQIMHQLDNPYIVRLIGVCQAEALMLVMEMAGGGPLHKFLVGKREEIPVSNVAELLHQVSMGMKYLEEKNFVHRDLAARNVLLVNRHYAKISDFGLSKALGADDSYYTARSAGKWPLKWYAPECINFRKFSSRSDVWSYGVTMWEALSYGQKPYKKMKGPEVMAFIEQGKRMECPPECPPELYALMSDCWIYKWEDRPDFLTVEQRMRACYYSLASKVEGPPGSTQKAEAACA
Chain of UniProt Q9UPE1 (whole entry, looked up): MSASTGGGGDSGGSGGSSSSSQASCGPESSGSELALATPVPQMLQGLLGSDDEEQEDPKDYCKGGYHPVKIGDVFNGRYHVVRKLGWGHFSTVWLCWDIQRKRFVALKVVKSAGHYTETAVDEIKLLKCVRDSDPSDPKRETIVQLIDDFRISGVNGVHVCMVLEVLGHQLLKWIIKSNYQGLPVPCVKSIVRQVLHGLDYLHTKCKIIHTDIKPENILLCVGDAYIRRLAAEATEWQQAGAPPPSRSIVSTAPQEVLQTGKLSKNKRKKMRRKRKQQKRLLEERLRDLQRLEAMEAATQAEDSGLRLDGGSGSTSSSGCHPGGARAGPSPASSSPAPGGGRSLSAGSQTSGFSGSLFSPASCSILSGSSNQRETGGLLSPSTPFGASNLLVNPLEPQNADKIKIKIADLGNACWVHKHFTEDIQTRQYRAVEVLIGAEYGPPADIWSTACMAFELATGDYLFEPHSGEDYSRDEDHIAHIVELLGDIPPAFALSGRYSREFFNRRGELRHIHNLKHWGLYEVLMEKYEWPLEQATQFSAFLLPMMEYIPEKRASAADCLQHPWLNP
Chain of UniProt O75460 (whole entry, looked up): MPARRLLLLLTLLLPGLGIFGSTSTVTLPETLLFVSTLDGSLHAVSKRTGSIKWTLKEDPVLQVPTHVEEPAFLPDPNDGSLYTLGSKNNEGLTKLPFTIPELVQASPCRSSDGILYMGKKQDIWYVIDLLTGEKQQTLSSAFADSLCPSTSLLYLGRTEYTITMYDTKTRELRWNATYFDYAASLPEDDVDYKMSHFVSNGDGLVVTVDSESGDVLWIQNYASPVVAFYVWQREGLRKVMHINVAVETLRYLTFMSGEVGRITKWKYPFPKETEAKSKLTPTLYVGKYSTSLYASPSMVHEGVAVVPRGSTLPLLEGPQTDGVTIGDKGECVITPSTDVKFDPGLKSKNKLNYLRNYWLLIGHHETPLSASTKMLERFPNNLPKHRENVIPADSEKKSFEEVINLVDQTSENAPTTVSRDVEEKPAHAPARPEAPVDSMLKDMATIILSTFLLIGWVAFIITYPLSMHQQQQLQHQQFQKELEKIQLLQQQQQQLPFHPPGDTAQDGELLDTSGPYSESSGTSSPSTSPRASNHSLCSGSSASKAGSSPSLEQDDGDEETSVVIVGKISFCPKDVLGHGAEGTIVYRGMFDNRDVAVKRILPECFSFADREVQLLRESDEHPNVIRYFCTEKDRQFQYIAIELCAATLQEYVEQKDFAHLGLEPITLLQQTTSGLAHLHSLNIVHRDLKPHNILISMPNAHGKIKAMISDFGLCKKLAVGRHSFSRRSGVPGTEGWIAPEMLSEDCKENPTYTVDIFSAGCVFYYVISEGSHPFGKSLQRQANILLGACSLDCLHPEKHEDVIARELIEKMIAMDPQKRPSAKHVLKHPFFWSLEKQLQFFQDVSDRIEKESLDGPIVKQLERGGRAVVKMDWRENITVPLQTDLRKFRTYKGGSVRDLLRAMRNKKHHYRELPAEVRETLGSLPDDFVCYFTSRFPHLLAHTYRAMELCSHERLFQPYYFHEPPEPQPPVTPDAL
Chain of UniProt Q07002 (whole entry, looked up): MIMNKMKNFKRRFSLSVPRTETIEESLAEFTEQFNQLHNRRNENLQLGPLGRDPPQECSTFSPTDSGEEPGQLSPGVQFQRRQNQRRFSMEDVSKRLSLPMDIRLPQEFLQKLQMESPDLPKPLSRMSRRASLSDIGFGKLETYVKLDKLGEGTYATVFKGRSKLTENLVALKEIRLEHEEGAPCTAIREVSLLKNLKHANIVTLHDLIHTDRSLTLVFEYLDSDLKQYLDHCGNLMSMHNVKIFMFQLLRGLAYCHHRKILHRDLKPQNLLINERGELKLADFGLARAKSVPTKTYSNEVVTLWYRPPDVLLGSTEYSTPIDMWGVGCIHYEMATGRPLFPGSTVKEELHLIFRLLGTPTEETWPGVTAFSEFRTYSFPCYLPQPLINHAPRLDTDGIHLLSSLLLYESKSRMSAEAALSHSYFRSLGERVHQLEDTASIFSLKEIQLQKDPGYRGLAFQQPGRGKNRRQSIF
Chain of UniProt Q02750 (whole entry, looked up): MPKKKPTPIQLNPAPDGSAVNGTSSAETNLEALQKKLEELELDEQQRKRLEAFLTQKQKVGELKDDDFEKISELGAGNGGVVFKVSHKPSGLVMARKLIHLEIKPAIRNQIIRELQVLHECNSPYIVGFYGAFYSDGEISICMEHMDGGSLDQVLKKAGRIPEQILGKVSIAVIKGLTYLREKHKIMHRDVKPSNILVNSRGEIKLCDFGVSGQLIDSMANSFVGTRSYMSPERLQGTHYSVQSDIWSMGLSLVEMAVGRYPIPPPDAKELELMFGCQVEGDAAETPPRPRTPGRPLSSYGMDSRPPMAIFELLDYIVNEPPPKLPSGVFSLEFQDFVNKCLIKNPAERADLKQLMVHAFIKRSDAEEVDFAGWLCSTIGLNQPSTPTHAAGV

Sample 1
SMILES: CC[C@@]1(c2cccc(C(F)(F)F)c2)C2=C(Nc3n[nH]cc31)[C@H](F)C(C)(C)CC2=O (single isomer, unassigned)
Tested at: 1 µM
Endpoint: remaining binding
Phosphatidylinositol 4-phosphate 3-kinase C2 domain-containing subunit beta (PIK3C2B, Homo sapiens, UniProt O00750); binding, competition with immobilised ligand: 100%
Serine/threonine-protein kinase 33 (STK33, Homo sapiens, UniProt Q9BYT3); kinase binding, KINOMEscan; baseline: DMSO control: 100%
Tyrosine-protein kinase ABL1, non-phosphorylated (ABL1, Homo sapiens, UniProt P00519, T315I); kinase binding, KINOMEscan; baseline: DMSO control: 100%
Mitogen-activated protein kinase kinase kinase 2 (MAP3K2, Homo sapiens, UniProt Q9Y2U5); kinase binding, KINOMEscan; baseline: DMSO control: 100%
Calcium/calmodulin-dependent protein kinase type IV (CAMK4, Homo sapiens, UniProt Q16566); kinase binding, KINOMEscan; baseline: DMSO control: 100%
Cyclin-dependent kinase 18 (CDK18, Homo sapiens, UniProt Q07002); binding, competition with immobilised ligand: 100%
Tyrosine-protein kinase FRK (FRK, Homo sapiens, UniProt P42685); kinase binding, KINOMEscan; baseline: DMSO control: 75%
Calcium/calmodulin-dependent protein kinase type 1 (CAMK1, Homo sapiens, UniProt Q14012); binding, competition with immobilised ligand: 100%
Serine/threonine-protein kinase TNNI3K (TNNI3K, Homo sapiens, UniProt Q59H18); kinase binding, KINOMEscan; baseline: DMSO control: 78%
Tyrosine-protein kinase ZAP-70 (ZAP70, Homo sapiens, UniProt P43403); binding, competition with immobilised ligand: 100%
Receptor-type tyrosine-protein kinase FLT3, autoinhibited (FLT3, Homo sapiens, UniProt P36888); binding, competition with immobilised ligand: 97%
Rho-associated protein kinase 2 (ROCK2, Homo sapiens, UniProt O75116); binding, competition with immobilised ligand: 97%
ALK tyrosine kinase receptor (ALK, Homo sapiens, UniProt Q9UM73); kinase binding, KINOMEscan; baseline: DMSO control: 73%

Sample 2
SMILES: C[C@@H]1CN(c2ccc(-c3cc(C(=O)NCCOCCOCCOCCOCCNC(=O)Cn4cc(-c5[nH]cc(C(=O)N[C@@H](CC(N)=O)c6ccc(F)c(Cl)c6)c5-c5ccc(Cl)cc5F)cn4)ccc3F)cc2NC(=O)c2c[nH]c(=O)cc2C(F)(F)F)C[C@H](C)N1C
Observed: thermal unfolding
Method: differential scanning fluorimetry
Tested at: 5.5 µM
Direction: higher = more unfolded
Endpoint: SYPRO Orange fluorescence
DCAF1: DDB1- and CUL4-associated factor 1 (DCAF1, Homo sapiens, UniProt Q9Y4B6)
Chain of UniProt Q9Y4B6 (whole entry, looked up): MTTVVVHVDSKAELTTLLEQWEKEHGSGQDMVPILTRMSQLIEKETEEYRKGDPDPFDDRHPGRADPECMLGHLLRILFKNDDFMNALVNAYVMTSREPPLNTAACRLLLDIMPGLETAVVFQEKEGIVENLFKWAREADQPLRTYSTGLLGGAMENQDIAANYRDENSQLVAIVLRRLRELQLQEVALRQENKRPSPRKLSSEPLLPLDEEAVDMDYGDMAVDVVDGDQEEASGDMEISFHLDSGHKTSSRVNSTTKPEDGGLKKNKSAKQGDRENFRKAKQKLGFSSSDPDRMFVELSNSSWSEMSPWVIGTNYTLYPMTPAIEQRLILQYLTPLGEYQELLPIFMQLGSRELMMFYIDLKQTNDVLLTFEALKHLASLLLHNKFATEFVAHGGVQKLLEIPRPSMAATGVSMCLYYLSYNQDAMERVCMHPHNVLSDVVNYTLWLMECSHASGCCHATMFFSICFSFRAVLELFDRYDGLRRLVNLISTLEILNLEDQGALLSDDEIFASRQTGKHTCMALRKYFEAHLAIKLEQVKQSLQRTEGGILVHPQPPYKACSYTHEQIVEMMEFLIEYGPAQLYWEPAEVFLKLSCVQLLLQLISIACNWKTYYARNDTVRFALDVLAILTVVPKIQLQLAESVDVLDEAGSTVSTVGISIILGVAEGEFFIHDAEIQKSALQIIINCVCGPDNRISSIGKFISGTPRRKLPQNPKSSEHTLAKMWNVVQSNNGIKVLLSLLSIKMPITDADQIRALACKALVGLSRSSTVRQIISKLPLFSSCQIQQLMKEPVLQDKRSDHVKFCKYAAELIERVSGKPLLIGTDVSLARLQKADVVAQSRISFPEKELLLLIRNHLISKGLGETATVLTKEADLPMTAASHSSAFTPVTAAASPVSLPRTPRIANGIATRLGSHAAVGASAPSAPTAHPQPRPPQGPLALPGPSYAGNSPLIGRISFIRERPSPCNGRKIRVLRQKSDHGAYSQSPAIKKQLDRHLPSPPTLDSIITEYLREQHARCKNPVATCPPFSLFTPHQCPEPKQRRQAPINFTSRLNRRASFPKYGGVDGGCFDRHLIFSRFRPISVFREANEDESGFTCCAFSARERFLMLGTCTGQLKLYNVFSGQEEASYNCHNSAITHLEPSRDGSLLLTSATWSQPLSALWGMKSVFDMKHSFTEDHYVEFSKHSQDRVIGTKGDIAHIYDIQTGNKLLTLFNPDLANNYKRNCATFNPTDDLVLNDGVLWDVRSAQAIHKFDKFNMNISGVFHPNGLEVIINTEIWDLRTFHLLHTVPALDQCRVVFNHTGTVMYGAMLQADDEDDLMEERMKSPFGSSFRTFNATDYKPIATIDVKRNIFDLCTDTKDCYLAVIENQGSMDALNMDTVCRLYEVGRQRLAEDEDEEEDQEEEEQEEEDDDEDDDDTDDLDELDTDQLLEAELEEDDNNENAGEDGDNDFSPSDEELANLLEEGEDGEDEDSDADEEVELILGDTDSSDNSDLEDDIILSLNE
WDR5: WD repeat-containing protein 5 (WDR5, Homo sapiens, UniProt P61964)
DCAF1; 44 °C: 11800 a.u.
DCAF1; 91.81 °C: 33400 a.u.
DCAF1; 86.21 °C: 38600 a.u.
WDR5; 55.01 °C: 13600 a.u.
DCAF1; 50 °C: 14600 a.u.
WDR5; 59.21 °C: 10800 a.u.
WDR5; 81.01 °C: 26600 a.u.

Sample 3
Target: Membrane-associated tyrosine- and threonine-specific cdc2-inhibitory kinase (PKMYT1, Homo sapiens, UniProt Q99640)
Chain of UniProt Q99640 (whole entry, looked up): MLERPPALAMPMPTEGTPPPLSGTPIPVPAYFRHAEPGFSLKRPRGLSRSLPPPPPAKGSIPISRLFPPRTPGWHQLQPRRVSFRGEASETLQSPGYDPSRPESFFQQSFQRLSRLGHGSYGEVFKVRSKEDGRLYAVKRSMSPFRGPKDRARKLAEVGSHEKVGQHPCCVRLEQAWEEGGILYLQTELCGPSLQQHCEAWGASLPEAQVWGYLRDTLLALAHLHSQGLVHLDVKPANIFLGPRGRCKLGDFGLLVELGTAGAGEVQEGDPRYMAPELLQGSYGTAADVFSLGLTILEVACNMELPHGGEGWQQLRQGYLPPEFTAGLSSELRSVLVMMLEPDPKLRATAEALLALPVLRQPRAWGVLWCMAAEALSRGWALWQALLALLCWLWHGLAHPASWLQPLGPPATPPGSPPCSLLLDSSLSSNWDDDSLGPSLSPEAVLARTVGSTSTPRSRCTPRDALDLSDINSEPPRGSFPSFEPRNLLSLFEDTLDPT
Observed: binding
Method: HTRF
Tested at: 4.12 nM
Endpoint: inhibition
Cc1ccc(O)c(C)c1-c1cnc2[nH]c(-c3cnc(N4CCC(CCN5CCN(c6cc7c(cc6F)c(N6CCC(=O)NC6=O)nn7C)CC5)CC4)nc3)cc2c1C#N: 58.2% and 56.9%
Cc1ccc(O)c(C)c1-c1cnc2[nH]c(-c3cnc(N4CCC(CCN5CCN(c6ccc(N7CCC(=O)NC7=O)cc6F)CC5)CC4)nc3)cc2c1C#N: 67.3% and 66.9%
Cc1ccc(O)c(C)c1-c1cnc2[nH]c(-c3cnc(N4CCC(CN5CCN(c6c(F)cc(NC7CCC(=O)NC7=O)cc6F)CC5)CC4)nc3)cc2c1C#N (racemic): 14.7% and 13.9%
Cc1ccc(O)c(C)c1-c1cnc2[nH]c(-c3cnc(N4CCC(CN5CCN(c6ccc(NC7CCC(=O)NC7=O)c(F)c6)CC5)CC4)nc3)cc2c1C#N (racemic): 43.1% and 44.5%
Cc1ccc(O)c(C)c1-c1cnc2[nH]c(-c3cnc(N4CCC(CCN5CCN(c6ccc7c(c6)C(=O)N(C6CCC(=O)NC6=O)C7=O)CC5)CC4)nc3)cc2c1C#N (racemic): 37.5% and 35.9%

Sample 4
SMILES: O=C(Nc1ccccc1)Nc1cccc(Oc2ccc3nccn3n2)c1
Observed: binding
Tested at: 1 µM
Endpoint: remaining binding
Inhibitor of nuclear factor kappa-B kinase subunit epsilon (IKBKE, Homo sapiens, UniProt Q14164): 100%
Tyrosine-protein kinase ZAP-70 (ZAP70, Homo sapiens, UniProt P43403): 100%
Casein kinase I isoform alpha-like (CSNK1A1L, Homo sapiens, UniProt Q8N752): 41%
Mast/stem cell growth factor receptor Kit (KIT, Homo sapiens, UniProt P10721, V559D): 0%
Mitogen-activated protein kinase kinase kinase 9 (MAP3K9, Homo sapiens, UniProt P80192): 100%
Ribosomal protein S6 kinase alpha-4, C-terminal kinase domain (RPS6KA4, Homo sapiens, UniProt O75676); competition with immobilised ligand: 100%
Serine/threonine-protein kinase/endoribonuclease IRE1 (ERN1, Homo sapiens, UniProt O75460): 100%
Maternal embryonic leucine zipper kinase (MELK, Homo sapiens, UniProt Q14680): 100%
Serine/threonine-protein kinase Chk1 (CHEK1, Homo sapiens, UniProt O14757): 100%
RAC-beta serine/threonine-protein kinase (AKT2, Homo sapiens, UniProt P31751): 100%
MAP kinase-interacting serine/threonine-protein kinase 1 (MKNK1, Homo sapiens, UniProt Q9BUB5); competition with immobilised ligand: 90%
Dual specificity mitogen-activated protein kinase kinase 1 (MAP2K1, Homo sapiens, UniProt Q02750); competition with immobilised ligand: 100%
SRSF protein kinase 3 (SRPK3, Homo sapiens, UniProt Q9UPE1): 71%

For quick reference, copied from above (sample 1):
Calcium/calmodulin-dependent protein kinase type IV (CAMK4, Homo sapiens, UniProt Q16566); kinase binding, KINOMEscan; baseline: DMSO control: 100%
Tyrosine-protein kinase ABL1, non-phosphorylated (ABL1, Homo sapiens, UniProt P00519, T315I); kinase binding, KINOMEscan; baseline: DMSO control: 100%
